Assay results of several laboratories.
Protocols differ between the studies behind these lines. ± marks the error that the study gave.
BCHE: Cholinesterase (BCHE, Homo sapiens, UniProt P06276)
Chain of UniProt P06276 (whole entry, looked up): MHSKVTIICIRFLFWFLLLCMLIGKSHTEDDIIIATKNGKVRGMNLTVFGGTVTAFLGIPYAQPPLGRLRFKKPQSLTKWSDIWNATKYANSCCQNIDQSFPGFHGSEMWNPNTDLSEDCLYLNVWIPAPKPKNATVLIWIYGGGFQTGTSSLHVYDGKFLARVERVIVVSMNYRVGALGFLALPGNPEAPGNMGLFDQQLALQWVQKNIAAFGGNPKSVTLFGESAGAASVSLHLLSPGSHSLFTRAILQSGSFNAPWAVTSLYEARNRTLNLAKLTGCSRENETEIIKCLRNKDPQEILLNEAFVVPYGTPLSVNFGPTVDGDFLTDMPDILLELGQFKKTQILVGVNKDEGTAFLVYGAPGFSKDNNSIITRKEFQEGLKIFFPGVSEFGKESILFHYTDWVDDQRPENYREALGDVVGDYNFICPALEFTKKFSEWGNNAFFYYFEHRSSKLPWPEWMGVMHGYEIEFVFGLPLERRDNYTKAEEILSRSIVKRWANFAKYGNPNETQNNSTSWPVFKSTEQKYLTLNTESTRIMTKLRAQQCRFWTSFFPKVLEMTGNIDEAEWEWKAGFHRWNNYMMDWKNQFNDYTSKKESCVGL

Structure (SMILES)	tested on	test	system	conditions	scale	endpoint	value
COc1cc2c(Oc3ccc4[nH]c(C)cc4c3F)ccnc2cc1OCC1(N)CC1	–	–	paediatric recurrent refractory sarcoma	concentration not given, whole group	–	grade 3 Headache	0%
CCN(CCO)CCCC(C)Nc1ccnc2cc(Cl)ccc12 (stereo not drawn)	–	–	newly diagnosed glioblastoma patients	oral, 800 mg/dose, grade 2, added: radiotherapy and temozolomide	–	anemia patients	66%
C[C@]1(CO)Cc2ncn(-c3ccc(C#N)c(Cl)c3)c2C(=O)O1	–	–	human	3 mg multiple doses, fasted	–	subjects with drug-related somnolence	0%
O=[N+]([O-])c1ccc2c(c1)S(=O)(=O)C=C2	–	–	male C57BL/6 mice, blood	intraperitoneal, 10 mg/kg, day 8, group average	–	red cell distribution width SD	32 fL
CO[C@H]1C[C@@H]2CC[C@@H](C)[C@@](O)(O2)C(=O)C(=O)N2CCCC[C@H]2C(=O)O[C@H]([C@H](C)C[C@@H]2CC[C@@H](OC(=O)NCCOCCOCCOCCOCCOCCOCCOCCOCCC(=O)N3CCc4cc(Cn5nc(-c6ccc7oc(N)nc7c6)c6c(N)ncnc65)ccc4C3)[C@H](OC)C2)C[C@@H](O)[C@H](C)/C=C(\C)[C@@H](O)[C@@H](OC)C(=O)[C@H](C)C[C@H](C)/C=C/C=C/C=C/1C	–	–	patients with advanced solid tumours	intravenous, 6 mg weekly, any grade	–	nausea incidence	50%
Cc1cccc(S(=O)(=O)N2CCC[C@@H]2CCN2CCC(C)CC2)c1	BCHE	inhibitor	–	–	–	IC50	3.71 ± 0.24 µM
CCN1[C@@H](C(=O)NC23CCC(C(=O)O)(CC2)CC3)[C@H](c2cccc(Cl)c2F)[C@]2(C(=O)Nc3cc(Cl)ccc32)C12CCCCC2	–	–	patients with advanced solid tumours	oral, 200 mg	–	grade ≥3 adverse event incidence	50%
COc1cc(N2CC[C@@]3(O)C(=O)c4cc(C)c(C)cc4N=C23)ccn1	–	cardiac output, echocardiography	rat	IV, 5 mg/kg	–	recovery time	< 5 min
CC[N+](CC)(CC)CCOc1ccc(/C=C/c2ccccc2)cc1	Plasmodium falciparum	–	3D7	–	–	IC50	0.794 µM
COc1ccc2nc3cc(Cl)ccc3c(Nc3cc(CN4CCCC4)c(O)c(CN4CCCC4)c3)c2n1	–	–	mouse, blood	intraperitoneal, 14 mg/kg	–	monocytes	1.79%
COc1ccccc1N1CCN(/N=C/c2ccc(Cl)c([N+](=O)[O-])c2)CC1	Gag-Pol polyprotein, integrase (gag-pol, Human immunodeficiency virus 1, UniProt P12497)	3'-processing activity, inhibitor	–	wild-type integrase	–	IC50	> 100 µM
CCC(CC)(NC(=O)c1ccc(C2CC2)c(Cc2ccc(F)cc2)n1)C(=O)NCCOCCOCCNC(=O)c1ccc2c(c1)C(=O)OC21c2ccc(N)c(S(=O)(=O)O)c2Oc2c1ccc(N)c2S(=O)(=O)O	–	–	PBS	100 nM, pH 7.4, 0.1% DMSO	–	fluorescence quantum yield	77.1%
CCc1ccc(CC/C=C/c2ccc3c(c2)C(=O)CC3)cc1	–	–	Sprague-Dawley rat, male	oral, 120 mg/kg/day, 14 days	–	Glucose	4.63 mM
CCN1CCN(Cc2ccc(Nc3ncc(F)c(-c4cc(F)c5nc6n(c5c4)[C@H](C)CCC6)n3)nc2)CC1	–	–	advanced solid tumour patients	Phase Ia monotherapy	–	Anemia incidence, any grade	66.7%
CC(C)C[C@@H]1NC(=O)CNC(=O)[C@H](CC(N)=O)NC(=O)[C@H](CCCNC(=N)N)NC(=O)[C@H]([C@@H](C)O)NC(=O)[C@@H]2CSSC[C@@H]3NC(=O)[C@H]([C@@H](C)O)NC(=O)[C@H](CCCCN)NC(=O)CNC(=O)[C@H](C(C)C)NC(=O)[C@@H]4CSSC[C@H](NC(=O)[C@H]([C@@H](C)O)NC(=O)[C@H](CSSC[C@H](NC(=O)[C@H](C(C)C)NC(=O)[C@@H]5CCCN5C1=O)C(=O)NCC(=O)N[C@@H](CCC(=O)O)C(=O)N[C@@H]([C@@H](C)O)C(=O)N4)NC(=O)CNC(=O)[C@@H]1CCCN1C(=O)[C@H]([C@@H](C)O)NC(=O)[C@H](CC(N)=O)NC3=O)C(=O)N[C@@H](CO)C(=O)N[C@@H](Cc1c[nH]c3ccccc13)C(=O)N1CCC[C@H]1C(=O)N[C@@H](C(C)C)C(=O)N2	–	HPLC	ammonium bicarbonate	180 µM, 7 days, pH 9.0, 25 °C, deamidation stability	–	remaining peptide	95.3 ± 0.2%
CC1(C)[C@H](C=C(Cl)Cl)[C@H]1C(=O)OCc1cccc(Oc2ccccc2)c1	–	–	pooled human liver microsomes	–	–	CLint	1.61 mL/min/mg protein
COc1ccccc1N1CCN(CCCCNC(=O)c2ccc3ccccc3c2)CC1	Plasmodium falciparum	–	3D7	–	–	IC50	2 µM

Structure (SMILES)	tested on	test	system	conditions	scale	endpoint	value
COc1ncccc1-c1cnn2ccc(N3CCN(C(=O)OC(C)C)CC3)nc12	–	–	mouse nerve ligation model, brain	oral, 30 mg/kg, 120 min after last dose, repeat dosing day 3	–	drug concentration	24 µM
O=S(=O)(Nc1ccccc1)c1ccc(NC(=S)Nc2ccccc2)cc1	–	–	female mouse, blood	oral, 20 mg/kg daily, 14 days	–	potassium level	9.6 mmol/L
CC[C@H](C)[C@H](NC(=O)[C@H](Cc1ccccc1)NC(=O)[C@H](CCC(=O)O)NC(=O)[C@H](CCCNC(=N)N)NC(=O)[C@H](C)NC(=O)[C@H](C)NC(=O)[C@H](CCC(N)=O)NC(=O)[C@H](CCC(=O)O)NC(=O)[C@H](CCC(=O)O)NC(=O)[C@H](CC(C)C)NC(=O)[C@H](Cc1ccc(O)cc1)NC(=O)[C@H](CO)NC(=O)[C@H](CO)NC(=O)[C@@H](NC(=O)[C@H](CC(=O)O)NC(=O)[C@H](CO)NC(=O)[C@@H](NC(=O)[C@H](Cc1ccccc1)NC(=O)[C@@H](NC(=O)CNC(=O)[C@H](CCC(=O)O)NC(=O)[C@H](C)NC(=O)CCc1c[nH]cn1)[C@@H](C)O)[C@@H](C)O)C(C)C)C(=O)N[C@@H](C)C(=O)N[C@@H](Cc1c[nH]c2ccccc12)C(=O)N[C@@H](CC(C)C)C(=O)N[C@H](C(=O)N[C@@H](CCCNC(=N)N)C(=O)NCC(=O)N[C@@H](CCCNC(=N)N)C(=O)N[C@@H](CCCCNC(=O)COCCOCCNC(=O)COCCOCCNC(=O)CC[C@H](NC(=O)CCCCCCCCCCCCCCCCC(=O)O)C(=O)O)C(=O)NCC(=O)NCC(=O)N[C@@H](CO)C(=O)N[C@@H](CCCCNc1c(NCCCCCN(O)C(=O)CCC(=O)NCCCCCN(O)C(=O)CCC(=O)NCCCCCN(O)C(C)=O)c(=O)c1=O)C(=O)O)C(C)C	–	UPLC-MS	rat, plasma	subcutaneous, 20 nmol/kg	–	Vz/F	0.167 L/kg
CC(=O)c1c(C)c2cnc(Nc3ccc(C4CCN(CCS(C)(=O)=O)CC4)cn3)nc2n(C2CCCC2)c1=O	–	–	HR+/HER2- advanced breast cancer patients	oral, dose not given, all grades, dose escalation, sample B patients	–	patients with GGT increased	21.1%
CN1CCN(c2ccc(Nc3nccc(-c4cccc(Cl)c4)n3)cc2C(F)(F)F)CC1	–	–	Danio rerio embryos	5 µM, 5 d	–	toxicity	37 ± 32%
Clc1cc(Cl)c(-c2cc(Cl)c(Cl)cc2Cl)cc1Cl	–	–	PDMS-water partitioning	PCB compilation	relative to: maximum over minimum K	literature range factor	3
O[C@H]1CCCN[C@@H]1CCCn1cnc2c(Cl)c(Cl)ccc21	–	–	healthy human, plasma	oral, 150 mg twice daily, steady state	–	Cmax	0.31 µg/mL
CC[C@H](C)[C@H](NC(=O)[C@H](Cc1ccc(O)cc1)NC(=O)[C@@H]1CCCN1C(=O)[C@H](CCCNC(=N)N)NC(=O)[C@@H](N)CCCNC(=N)NC(=O)NCCOCCOCC[n+]1c(C)cc(/C=C/C=C/c2ccc(N(C)C)cc2)cc1C)C(=O)N[C@@H](CC(C)C)C(=O)O	–	–	PBS	pH 7.4	relative to: cresyl violet perchlorate	fluorescence quantum yield	10%
CC(C)C[C@H](NC(=O)[C@H](Cc1ccccc1)NC(=O)[C@H](Cc1ccccc1)NC(=O)Cc1ccc(-c2ccccc2)cc1)C(=O)N[C@@H](CCCCN)C(=O)N[C@@H](CCCNC(=N)N)C(=O)N[C@H](C(=O)N[C@@H](Cc1c[nH]c2ccccc12)C(=O)N[C@@H](CCCCN)C(=O)N[C@@H](CCCNC(=N)N)C(=O)O)C(C)C	–	–	human liver microsomes	–	–	hepatic clearance	0.959 L/h/kg
O=C(Nc1ccccc1)C1CCN(C(=O)Oc2cccnc2)CC1	–	adverse event reporting	healthy women	oral, 20 mg, 7 days	–	subjects with nervous system disorders	21.4%
CN(C)C(=O)c1cc2cnc(Nc3ccc(N4CCNCC4)cn3)nc2n1C1CCCC1	–	refers to: Renal toxicity, AESI	human, HR+/HER2− advanced breast cancer	oral, dose not given, all grades, CTCAE v4.03	–	patients with adverse event	5.4%
Clc1cc(Cl)c(-c2cc(Cl)c(Cl)c(Cl)c2Cl)cc1Cl	–	–	fresh water	12 (unit not given), 20 °C	–	log K(PDMS-water)	6.73 ± 0.1
CN1CC[C@@H](c2c(O)cc(O)c3c(=O)cc(-c4ccc(C(F)(F)F)cc4Cl)oc23)[C@@H]1CO	–	refers to: Leukopenia	relapsed AML	oral, 100 mg, grade 3-4, intermittent dosing	–	patients with adverse event	0%
COc1cc2c(cc1OC)CN(CCc1ccc(NC(=O)c3cccc4c(=O)c5cccc(OC)c5[nH]c34)cc1)CC2	–	–	CD-1 mouse, male, lung	intraperitoneal, 10 mg/kg	–	elimination rate constant	2.02e-05 s⁻¹
[O-][S+]1CCc2nc(N3CCC(c4ncc(Cl)cn4)CC3)nc(NC3(CO)CCC3)c21 (stereo not drawn)	–	refers to: Diarrhoea	healthy male humans	6 mg twice daily	–	adverse event incidence	12.5%
CC[C@H](NC(=O)[C@H](CS(=O)(=O)CC1CC1)N[C@@H](c1ccc(F)cc1)C(F)(F)F)C(=O)C(=O)NC1CC1	BCHE	inhibitor	–	–	–	IC50	2.26 ± 0.29 µM

Excerpt of the above:
Structure (SMILES)	tested on	test	system	conditions	scale	endpoint	value
CO[C@H]1C[C@@H]2CC[C@@H](C)[C@@](O)(O2)C(=O)C(=O)N2CCCC[C@H]2C(=O)O[C@H]([C@H](C)C[C@@H]2CC[C@@H](OC(=O)NCCOCCOCCOCCOCCOCCOCCOCCOCCC(=O)N3CCc4cc(Cn5nc(-c6ccc7oc(N)nc7c6)c6c(N)ncnc65)ccc4C3)[C@H](OC)C2)C[C@@H](O)[C@H](C)/C=C(\C)[C@@H](O)[C@@H](OC)C(=O)[C@H](C)C[C@H](C)/C=C/C=C/C=C/1C	–	–	patients with advanced solid tumours	intravenous, 6 mg weekly, any grade	–	nausea incidence	50%
Cc1cccc(S(=O)(=O)N2CCC[C@@H]2CCN2CCC(C)CC2)c1	BCHE	inhibitor	–	–	–	IC50	3.71 ± 0.24 µM
